{"data": "Results of several laboratories", "note": "Numbered parts are unrelated; each lists some results of a single study."}
{"data": "Study 1", "target": "Interferon regulatory factor 5, full length, phosphomimetic (IRF5, Homo sapiens, UniProt Q13568-2, residues 1-514, K96S/S451D/S453D/S456D/S462D)", "technique": "protein-binding microarray", "molecule type": "double-stranded DNA, one strand shown", "matrix": "in vitro", "tested at": "250 nM", "notes": "60-bp whole probe", "with": "salmon DNA 0.4 mg/ml", "baseline": "random background probes", "direction": "higher = stronger binding", "constant ends, left off below": "GCCTAGCACT … GTCTTGATTCGCTTGACGCTGCTG"}
{"Sequence": "TAGGTATGGACACTGGGTTAGTGCTA", "log fluorescence": "-0.166 z-score"}
{"Sequence": "AAGGTTCCCTTTTCCTTTAGTGCTAG", "log fluorescence": "0.469 z-score"}
{"Sequence": "TAGGAGTGGGGTTTCGGTTAGTGCTA", "log fluorescence": "6.71 z-score"}
{"Sequence": "TTTTGGATGCTGGAAAAATGTGCTAG", "log fluorescence": "1.05 z-score"}
{"Sequence": "TAGGTCTCCTTATCCTTTAGTGCTAG", "log fluorescence": "-0.0646 z-score"}
{"data": "Study 2", "target": "Histone acetyltransferase KAT6A, winged helix 1, GST fusion (KAT6A, Homo sapiens, UniProt Q92794, residues 1-85)", "technique": "protein binding microarray", "molecule type": "double-stranded DNA, one strand shown", "matrix": "in vitro", "tested at": "not given", "notes": "8-mer, flanks averaged, mean of 2 arrays, mostly near background", "baseline": "not given", "direction": "higher = stronger binding", "Construct (chain)": "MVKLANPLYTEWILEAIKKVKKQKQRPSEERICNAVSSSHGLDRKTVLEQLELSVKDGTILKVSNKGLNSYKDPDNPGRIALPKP"}
{"Sequence": "CATATGTC", "E-score": -0.00319}
{"Sequence": "AGGTGGCC", "E-score": -0.182}
{"Sequence": "CTTGAGAA", "E-score": -0.265}
{"Sequence": "CTTATTAC", "E-score": 0.0122}
{"data": "Study 3", "target": "RNA binding protein fox-1 homolog 2, RRM domain, GST-SBP tag (RBFOX2, Homo sapiens, UniProt O43251-10, residues 100-194)", "technique": "RNA Bind-n-Seq", "molecule type": "RNA", "matrix": "in vitro", "tested at": "365 nM", "notes": "natural RNA segment, single round, ends assumed", "baseline": "no-protein control", "direction": "higher = stronger binding", "Target sequence (chain)": "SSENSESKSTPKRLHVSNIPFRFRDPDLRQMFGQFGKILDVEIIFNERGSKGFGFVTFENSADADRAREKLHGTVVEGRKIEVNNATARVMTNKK"}
{"Sequence": "GGGAGUUCUACAGUCCGACGAUCCUAAACCCCUGAUGCUGGUUAGGAACUUCUCACCCCAACACGUGUCUUAAGUAAGGCAGGGCAAGGCGGAGGACACUUGGCCAGAAGGAUAGAGACUGCUGGGUUCGUCCUGGAAUUCUCGGGUGCCAA", "RBNS enrichment (R)": 0.341}
{"Sequence": "GGGAGUUCUACAGUCCGACGAUCCCCCCCAAAGACAGUGCAAGUAAUGACCGUUUGGAUCUCAUUCGUCGAUCUUUGAUAGUAUGUUCUGGAGUCUACUCCCCAGGAGCCAGGACAGGCGUGAAGAUGGAGUCUGGAAUUCUCGGGUGCCAA", "RBNS enrichment (R)": 1.19}
{"Sequence": "GGGAGUUCUACAGUCCGACGAUCUUGACGUCGUUUUACAAGAAAACAAUGGGGCUGGUUUUGCUUCCCCGUGCAUGAUUUACUCUUAGAGAUGAUUCAGAGGUCACUUCAUUUUUAUUAAACAGUGAACUUGUUGGAAUUCUCGGGUGCCAA", "RBNS enrichment (R)": 12.1}
{"data": "Other studies, line by line"}
{"Molecule": "PhoQ, residues 284 288 289 292 302 303 SQSLSM", "target": "PhoP, residues 12 14 15 18 19 GQALL (Escherichia coli, UniProt P23836)", "test": "Sort-seq, item: YFP reporter", "system": "E. coli", "conditions": "PhoQ-PhoP variant library, with: 10 µM Mg2+", "scale": "baseline: high Mg2+ state, higher = stronger signaling", "quantity": "fold induction", "value": 25.2}
